Assay results collected from several papers.
Each line is one published result; not all experiments were run side by side. ± marks the error that the study gave.
Cell line: HUVEC

COc1cc2c(cc1OCCCOc1no[n+]([O-])c1S(=O)(=O)c1ccccc1)CCC1C2CCC2(C)C(O)CCC12 (stereo not drawn) — IC50 (cell growth or viability, MTT; 48 h): 0.725 µM
COc1ccc2cc3[n+](cc2c1OCc1cn(Cc2ccc([N+](=O)[O-])cc2)nn1)CCc1cc2c(cc1-3)OCO2 — IC50 (cell growth or viability, MTT): 36.5 µM
COC(=O)CNc1cc(C[S+]([O-])c2ccc3ccccc3c2)ccc1OC (stereo not drawn) — IC50 (cell growth or viability, MTS; 48 h): 11.4 µM
[NH2][Pt]1([NH2])([Cl])([O]C(=O)C(Cl)Cl)[O]C(=O)C2(CC(=O)C2)C(=O)[O]1 — IC50 (cell growth or viability, MTT): 59.1 µM
COc1ccc2cc3[n+](cc2c1OCc1cn(Cc2cccc(Cl)c2)nn1)CCc1cc2c(cc1-3)OCO2 — IC50 (cell growth or viability, MTT): 48.2 µM
COc1ccc(CC[C@H]2OC(=O)[C@@H]3CCCCN3C(=O)C(=O)C(C)(C)COC(=O)C=CCCN(C)C(=O)[C@H](CC(C)C)N(C)C(=O)[C@H]3CCCN3C(=O)[C@H](Cc3ccccc3)N(C)C(=O)[C@H](Cc3ccccc3)NC(=O)CCC(=O)Nc3cccc2c3)cc1OC — IC50 (thymidine uptake): 0.366 µM
COc1ccc2cc3[n+](cc2c1OCc1cn(Cc2cccc(Br)c2)nn1)CCc1cc2c(cc1-3)OCO2 — IC50 (cell growth or viability, MTT): 25.8 µM
O=C(N/C(=C/c1ccc([N+](=O)[O-])cc1)c1nc2ccccc2c(=O)o1)c1ccccc1 — IC50 (cell growth or viability, MTT; 48 h): 79.2 µM
O=C(Nc1ccc([N+](=O)[O-])cc1Cl)c1cc(F)ccc1O — IC50 (cell growth or viability, CCK-8; 24 h): 18.7 µM
COc1ccc(CC[C@H]2OC(=O)[C@@H]3CCCCN3C(=O)C(=O)C(C)(C)COC(=O)/C=C/CCN(C)C(=O)[C@H](CC(C)C)N(C)C(=O)[C@@H]3CCCN3C(=O)[C@H](Cc3ccccc3)N(C)C(=O)[C@H](c3ccccc3)NC(=O)CCC(=O)Nc3cccc2c3)cc1OC — IC50 (thymidine uptake, inhibitor; with: [3H]-thymidine): 0.005 µM
COC(=O)CNc1cc(C[S+]([O-])c2ccc3cc(Br)ccc3c2)ccc1OC (stereo not drawn) — IC50 (cell growth or viability, MTS; 48 h): 28.4 µM
COc1cc2c(=O)c(-c3ccc4c(c3)OCO4)coc2c2c1OC(C)(C)C=C2 — IC50 (cell growth or viability, MTT; 72 h): > 50 µM
COc1ccc2cc3[n+](cc2c1OCc1cn(Cc2ccc(Cl)cc2)nn1)CCc1cc2c(cc1-3)OCO2 — IC50 (cell growth or viability, MTT): 31.4 µM
COc1ccc([C@@H]2COc3cc(O)ccc3C2)c(OC)c1 — IC50 (cell growth or viability, MTT; 72 h): > 50 µM
COc1ccc2cc3[n+](cc2c1OCc1cn(Cc2ccccc2Cl)nn1)CCc1cc2c(cc1-3)OCO2 — IC50 (cell growth or viability, MTT): 33.1 µM
Cc1[nH]nc2c1N=C(c1ccccc1Cl)c1cnc(N3CCOCC3)cc1N2 — IC50 (cell growth or viability; 72 h): 0.0094 µM
COc1cc(OC)c(-c2coc3c4c(c(OC)cc3c2=O)OC(C)(C)C=C4)cc1OC — IC50 (cell growth or viability, MTT; 72 h): > 50 µM
Clc1ccc2ccc3[n+](c2c1)[Ir-3]12([c]4ccccc4-3)([c]3ccccc3-c3ccc4ccc(Cl)cc4[n+]31)[n+]1ccccc1-c1cccc[n+]12.F[P-](F)(F)(F)(F)F — IC50 (cell growth, MTT; 72 h): 2.2 ± 0.19 µM
